# Results pooled from the literature.
# Protocols differ between the studies behind these lines. Several values in a cell are separate wells, animals, samples, runs or records. ± gives the spread as reported.
# Phenylalanine--tRNA ligase alpha subunit: Phenylalanine--tRNA ligase alpha subunit (Plasmodium falciparum, UniProt Q8I246)
# BCHE: Cholinesterase (BCHE, Equus caballus, UniProt P81908)
# Sequence of UniProt P81908 (whole entry, looked up): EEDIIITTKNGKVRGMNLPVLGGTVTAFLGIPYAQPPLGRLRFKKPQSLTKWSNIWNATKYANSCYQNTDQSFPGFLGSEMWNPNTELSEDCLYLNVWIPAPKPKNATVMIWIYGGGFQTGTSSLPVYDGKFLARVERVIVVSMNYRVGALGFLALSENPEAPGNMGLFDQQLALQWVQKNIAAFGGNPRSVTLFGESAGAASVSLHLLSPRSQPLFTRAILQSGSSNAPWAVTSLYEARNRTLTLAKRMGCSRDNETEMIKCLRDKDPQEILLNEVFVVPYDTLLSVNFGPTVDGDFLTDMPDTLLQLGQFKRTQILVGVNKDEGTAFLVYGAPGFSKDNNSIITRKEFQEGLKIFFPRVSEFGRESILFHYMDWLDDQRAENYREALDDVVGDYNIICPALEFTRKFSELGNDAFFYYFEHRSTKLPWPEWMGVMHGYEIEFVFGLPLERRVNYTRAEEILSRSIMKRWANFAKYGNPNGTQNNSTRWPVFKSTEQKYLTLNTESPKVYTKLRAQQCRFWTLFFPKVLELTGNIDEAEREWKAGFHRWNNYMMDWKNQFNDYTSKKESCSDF
# Sequence of UniProt O88704 (whole entry, looked up): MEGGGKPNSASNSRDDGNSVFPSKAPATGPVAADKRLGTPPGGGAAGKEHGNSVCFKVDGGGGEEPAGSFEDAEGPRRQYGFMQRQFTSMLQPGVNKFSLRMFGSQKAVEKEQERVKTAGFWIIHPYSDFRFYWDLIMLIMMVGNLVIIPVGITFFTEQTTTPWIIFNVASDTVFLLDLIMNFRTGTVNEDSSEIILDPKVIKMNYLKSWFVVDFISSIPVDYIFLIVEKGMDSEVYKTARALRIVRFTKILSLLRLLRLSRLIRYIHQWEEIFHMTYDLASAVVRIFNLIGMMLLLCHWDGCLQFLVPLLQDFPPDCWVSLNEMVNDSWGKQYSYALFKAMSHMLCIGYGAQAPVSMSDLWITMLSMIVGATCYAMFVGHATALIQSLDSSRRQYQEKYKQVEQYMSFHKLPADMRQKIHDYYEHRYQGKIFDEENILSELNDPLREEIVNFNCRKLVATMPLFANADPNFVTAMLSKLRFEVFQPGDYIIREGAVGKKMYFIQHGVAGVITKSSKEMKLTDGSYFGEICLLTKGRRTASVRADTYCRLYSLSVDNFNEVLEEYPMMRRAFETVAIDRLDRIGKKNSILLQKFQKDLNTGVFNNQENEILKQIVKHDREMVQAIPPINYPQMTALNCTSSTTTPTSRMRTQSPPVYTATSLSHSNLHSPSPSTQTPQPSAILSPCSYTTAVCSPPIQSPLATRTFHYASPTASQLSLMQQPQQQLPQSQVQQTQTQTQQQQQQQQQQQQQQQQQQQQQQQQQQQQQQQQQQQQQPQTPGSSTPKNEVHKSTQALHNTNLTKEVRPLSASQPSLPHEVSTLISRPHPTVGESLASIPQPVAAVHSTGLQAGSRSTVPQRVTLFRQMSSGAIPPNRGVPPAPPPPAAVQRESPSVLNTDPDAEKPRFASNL
# Sequence of UniProt Q12809 (whole entry, looked up): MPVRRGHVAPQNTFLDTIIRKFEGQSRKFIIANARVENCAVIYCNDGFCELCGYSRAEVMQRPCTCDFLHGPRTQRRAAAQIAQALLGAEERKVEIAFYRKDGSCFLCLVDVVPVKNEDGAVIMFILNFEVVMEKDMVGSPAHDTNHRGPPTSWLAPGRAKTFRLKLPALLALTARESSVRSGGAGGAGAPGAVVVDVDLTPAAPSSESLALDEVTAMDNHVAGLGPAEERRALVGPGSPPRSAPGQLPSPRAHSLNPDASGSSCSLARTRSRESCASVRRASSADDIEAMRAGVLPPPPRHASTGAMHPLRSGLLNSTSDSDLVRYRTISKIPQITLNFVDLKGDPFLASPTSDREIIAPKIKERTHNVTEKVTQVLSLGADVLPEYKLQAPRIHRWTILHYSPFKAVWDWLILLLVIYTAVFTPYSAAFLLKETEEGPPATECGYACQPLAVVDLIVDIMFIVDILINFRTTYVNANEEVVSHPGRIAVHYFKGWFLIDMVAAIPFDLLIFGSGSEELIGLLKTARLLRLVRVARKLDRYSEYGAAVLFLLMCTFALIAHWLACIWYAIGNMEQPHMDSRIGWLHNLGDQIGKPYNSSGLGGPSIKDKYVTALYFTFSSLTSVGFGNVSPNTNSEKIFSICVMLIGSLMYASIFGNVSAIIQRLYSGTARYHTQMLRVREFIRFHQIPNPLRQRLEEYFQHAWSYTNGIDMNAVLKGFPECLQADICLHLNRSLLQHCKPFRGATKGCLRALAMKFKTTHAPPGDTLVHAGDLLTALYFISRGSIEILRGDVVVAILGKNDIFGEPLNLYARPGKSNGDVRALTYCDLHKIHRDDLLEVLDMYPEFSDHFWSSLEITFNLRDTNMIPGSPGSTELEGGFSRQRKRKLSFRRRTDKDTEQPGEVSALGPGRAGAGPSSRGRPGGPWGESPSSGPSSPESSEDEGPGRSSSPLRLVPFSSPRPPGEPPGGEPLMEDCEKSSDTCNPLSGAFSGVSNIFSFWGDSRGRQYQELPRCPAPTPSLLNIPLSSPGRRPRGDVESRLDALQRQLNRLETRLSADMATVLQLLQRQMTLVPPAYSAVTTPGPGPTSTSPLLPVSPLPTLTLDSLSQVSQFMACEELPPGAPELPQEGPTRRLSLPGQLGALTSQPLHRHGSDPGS
# Sequence of UniProt P28223 (whole entry, looked up): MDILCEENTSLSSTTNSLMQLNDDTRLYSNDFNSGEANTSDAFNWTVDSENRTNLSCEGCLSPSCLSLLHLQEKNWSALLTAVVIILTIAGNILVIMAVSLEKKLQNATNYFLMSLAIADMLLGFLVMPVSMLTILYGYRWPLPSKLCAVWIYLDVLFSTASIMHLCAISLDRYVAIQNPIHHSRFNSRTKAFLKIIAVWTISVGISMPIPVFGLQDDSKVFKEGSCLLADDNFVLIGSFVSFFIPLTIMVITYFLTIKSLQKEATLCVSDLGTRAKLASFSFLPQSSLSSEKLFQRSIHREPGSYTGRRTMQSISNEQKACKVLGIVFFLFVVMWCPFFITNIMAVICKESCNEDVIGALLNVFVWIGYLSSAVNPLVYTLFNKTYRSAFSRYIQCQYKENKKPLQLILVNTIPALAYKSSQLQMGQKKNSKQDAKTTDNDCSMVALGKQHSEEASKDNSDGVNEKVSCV
# Sequence of UniProt P11274 (whole entry, looked up): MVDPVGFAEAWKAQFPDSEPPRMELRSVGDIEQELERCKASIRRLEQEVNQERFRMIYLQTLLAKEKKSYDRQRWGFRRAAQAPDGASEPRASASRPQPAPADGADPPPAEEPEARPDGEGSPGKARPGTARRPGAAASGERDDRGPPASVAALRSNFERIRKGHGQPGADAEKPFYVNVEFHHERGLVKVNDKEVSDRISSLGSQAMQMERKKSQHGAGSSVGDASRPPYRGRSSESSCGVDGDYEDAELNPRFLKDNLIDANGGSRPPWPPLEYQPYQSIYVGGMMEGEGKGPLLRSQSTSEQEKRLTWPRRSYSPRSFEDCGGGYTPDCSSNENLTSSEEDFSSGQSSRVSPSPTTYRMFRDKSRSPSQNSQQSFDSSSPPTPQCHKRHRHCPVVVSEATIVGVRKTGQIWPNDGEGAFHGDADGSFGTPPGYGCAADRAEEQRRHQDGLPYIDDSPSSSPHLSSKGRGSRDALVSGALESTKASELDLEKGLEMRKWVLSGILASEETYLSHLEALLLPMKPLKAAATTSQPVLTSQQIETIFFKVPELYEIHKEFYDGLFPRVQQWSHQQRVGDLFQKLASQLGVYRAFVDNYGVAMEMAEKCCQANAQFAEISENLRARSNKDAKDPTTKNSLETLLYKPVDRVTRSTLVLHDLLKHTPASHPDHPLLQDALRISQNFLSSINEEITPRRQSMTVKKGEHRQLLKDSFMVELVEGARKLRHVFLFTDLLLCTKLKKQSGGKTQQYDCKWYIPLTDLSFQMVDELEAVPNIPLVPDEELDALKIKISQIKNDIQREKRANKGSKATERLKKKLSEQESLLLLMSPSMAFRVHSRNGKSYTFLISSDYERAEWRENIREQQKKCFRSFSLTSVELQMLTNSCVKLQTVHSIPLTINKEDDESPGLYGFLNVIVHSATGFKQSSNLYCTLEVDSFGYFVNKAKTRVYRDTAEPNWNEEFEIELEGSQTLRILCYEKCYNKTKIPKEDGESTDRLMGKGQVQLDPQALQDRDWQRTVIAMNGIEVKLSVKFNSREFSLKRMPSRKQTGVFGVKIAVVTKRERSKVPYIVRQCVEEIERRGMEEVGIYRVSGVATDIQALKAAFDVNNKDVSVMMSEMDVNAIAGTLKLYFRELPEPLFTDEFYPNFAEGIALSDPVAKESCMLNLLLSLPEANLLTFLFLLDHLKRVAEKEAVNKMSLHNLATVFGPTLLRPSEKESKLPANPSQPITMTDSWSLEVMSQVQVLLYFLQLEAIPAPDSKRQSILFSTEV
SMILES,target,test,test system,setting,IC50
COc1ccc(NC(=O)N2CCCCN3[C@H](CO)[C@H](c4ccc(C#Cc5ccccc5C#N)cc4)[C@@H]3C2)cc1,Phenylalanine--tRNA ligase alpha subunit,"aminoacylation activity, inhibitor",,,0.221 µM
O=C1Nc2ccc3ncsc3c2/C1=C/Nc1ccc(S(=O)(=O)Nc2ccccn2)cc1,"Putative glycogen synthase kinase (Leishmania major, UniProt Q4QE15, D105E)","enzyme activity, inhibitor",,"90 min, 30 °C, together with: ATP 2 µM",0.33 µM
CC[C@H](C)[C@H](NC(=O)[C@@H]1CCCN1C(=O)[C@H](CC(=O)O)NC(=O)[C@H](CCC(N)=O)NC(=O)[C@H](CCCNC(=N)N)NC(=O)[C@H](CCCNC(=N)N)NC(=O)[C@H](CCC(N)=O)NC(=O)[C@H](CCCNC(=N)N)NC(=O)[C@H](CCCNC(=N)N)NC(=O)[C@H](CCCCN)NC(=O)[C@H](CCCCN)NC(=O)[C@@H](N)CCCNC(=N)N)C(N)=O,human 20S proteasome,"chymotrypsin-like activity, inhibitor",,together with: SDS 0.005%,0.37 µM
Fc1ccc2c(C3CCN(CCCCN4CCCCC4)CC3)noc2c1,"5-hydroxytryptamine receptor 2A (HTR2A, Homo sapiens, UniProt P28223)","calcium signal, antagonist",,,43.9 µM
Cn1c(=O)[nH]c2nncnc2c1=O,"Protein disulfide-isomerase (P4HB, Homo sapiens, UniProt P07237)","enzyme activity, inhibitor, absorbance",,,> 120 µM
CC12CC3CC1(C)C1(C)CC3(CN)CC21C,NMDA receptor (rat),"intracellular Ca2+ increase, inhibitor",rat cerebellar granule neurons,together with: 100 µM NMDA plus 10 µM glycine,2.8 ± 1.1 µM
CC1=C(C(=O)NC(=O)c2cnccn2)C(c2ccc(Cl)cc2)NC(=S)N1 (stereo not shown),BCHE,,,,4.13 ± 0.01 µM
COc1cc2nc(N3CCN(C(=O)c4ccco4)CC3)nc(N)c2cc1OC,"Solute carrier organic anion transporter family member 1B1 (SLCO1B1, Homo sapiens, UniProt Q9Y6L6)","transport, inhibitor",,"10 (unit not given), pre-incubation, together with: estrone-3-sulfate",78.9 ± 22.8 µM
O=C(NCCCCCn1ccc2ccc(F)cc21)Oc1cccc(C(=O)O)c1,BCHE,"enzyme activity, inhibitor, HPLC",,,5.8 µM
Fc1cccc(-n2cnc3c(NCc4nc5c(F)c(F)ccc5[nH]4)nc(N4CCOCC4)nc32)c1,"Cyclin-dependent kinase 6, with cyclin D3 (CDK6, Homo sapiens, UniProt Q00534)","enzyme activity, inhibitor",,,0.427 µM
CC/C(=C(\c1ccc(O)cc1)c1ccc(OCCN(C)C)cc1)c1ccccc1,"Sodium channel protein type 2 subunit alpha (SCN2A, Homo sapiens, UniProt Q99250)","ion current, inhibitor, patch clamp",,,1.2 µM
O=C([O-])[C@H]([O-])[C@@H]([O-])C(=O)[O-].O=C([O-])[C@H]([O-])[C@@H]([O-])C(=O)[O-].[K+].[K+].[Sb+3].[Sb+3],"Thioredoxin glutathione reductase (Schistosoma mansoni, UniProt Q962Y6)","glutathione reductase activity, inhibitor",,"10 min preincubation with NADPH, together with: 100 µM GSSG",0.008 µM
O=C(O)c1ccccc1-c1c2ccc(=O)c([As]3SCCS3)c-2oc2c([As]3SCCS3)c(O)ccc12,"Tyrosine-protein phosphatase non-receptor type 11 (PTPN11, Homo sapiens, UniProt Q06124, V368C)","enzyme activity, inhibitor",crude Escherichia coli lysate,"120 min, 37 °C, together with: pNPP",1.3 µM
COc1c(C[C@@H](O)C(C)(C)O)c(=O)n(C)c2ccccc12,"Acetylcholinesterase (ACHE, Homo sapiens, UniProt P22303)","enzyme activity, inhibitor",,,> 500 µM
Nc1ccc2cc3ccccc3cc2c1,"Voltage-gated inwardly rectifying potassium channel KCNH2 (KCNH2, Homo sapiens, UniProt Q12809)","thallium influx, inhibitor, primary qHTS",hERG-transduced cells,two runs,6.5 ± 2.1 µM
O=c1c2ccccc2[se]n1-c1ccccc1,"Trypanothione synthetase (Trypanosoma brucei brucei, UniProt Q586P2)","enzyme activity, BIOMOL Green phosphate release",,1 h preincubation,5 µM and 5.3 µM
O=C(O)CNCP(=O)(O)O,"EPSPS, Arabidopsis thaliana, wild type",enzyme activity,plant extract,,16.1 ± 2.6 µM
CC1(C)[C@@H](OC(=O)CCC(=O)O)CC[C@]2(C)[C@H]3C(=O)C=C4[C@@H]5C[C@@](C)(C(=O)O)CC[C@]5(C)CC[C@@]4(C)[C@]3(C)CC[C@@H]12,"CRISPR-associated endonuclease Cas9/Csn1 (cas9, Streptococcus pyogenes serotype M1, UniProt Q99ZW2)","ssDNA target strand cleavage, inhibitor",,"together with: FAM ssDNA 87 nt, no PAM",> 50 µM
C[C@@H]1C[C@H]2[C@@H]3CCC4=CC(=O)C=C[C@]4(C)[C@@]3(Cl)[C@@H](O)C[C@]2(C)[C@@]1(OC(=O)c1ccco1)C(=O)CCl,"Multidrug resistance-associated protein 1 (ABCC1, Homo sapiens, UniProt P33527)","substrate efflux, inhibitor, flow cytometry",ABCC1-overexpressing SupT1-Vin cells,together with: BODIPY-FL-thapsigargin 100 nM,1 ± 0.7 µM
C[C@@H]1CC[C@]2(C(=O)O)CC[C@]3(C)C(=CC[C@@H]4[C@@]5(C)C[C@@H](O)[C@H](O)[C@@](C)(CO)[C@@H]5CC[C@]43C)[C@@H]2[C@]1(C)O,acetylcholinesterase,"inhibitor, Ellman",,"20 min pre-incubation, 30 min, pH 7.4, together with: acetylthiocholine",29.2 µg/mL
N#CC(=C(/N)Sc1ccccc1N)/C(C#N)=C(\N)Sc1ccccc1N,ERRα (human),"reporter gene, antagonist, luciferase reporter qHTS",,,11.2 µM
Oc1cc2c(cc1O)[C@H]1c3ccccc3CN[C@@H]1CC2 (racemic),"Carbamate kinase (Giardia intestinalis, UniProt A8BB85)","enzyme activity, ATP luminescence",,,20.6 µM
CCCCCCCC(=O)SCC/C=C/[C@@H]1CC(=O)NCc2nc(cs2)C2=N[C@@](C)(CS2)C(=O)N[C@@H](C(C)C)C(=O)N1,"Histone deacetylase 1 (HDAC1, Homo sapiens, UniProt Q13547)",inhibitor,,,> 3 µM
CN(Cc1cccc(-c2ccncc2)c1)C(=O)OC(C(F)(F)F)C(F)(F)F,"Monoacylglycerol lipase ABHD6 (Abhd6, Rattus norvegicus, UniProt Q5XI64)",competitive ABPP,rat brain membrane proteome,,0.013 µM
COc1ccc(CNC(=O)Nc2ncc([N+](=O)[O-])s2)cc1,"Putative glycogen synthase kinase (Leishmania major, UniProt Q4QE15, D105E/Y102F)","enzyme activity, inhibitor",,"90 min, 30 °C, together with: ATP 2 µM",13.3 µM
CCc1cccc(CC)c1N=C=O,"Potassium/sodium hyperpolarization-activated cyclic nucleotide-gated channel 1 (Hcn1, Mus musculus, UniProt O88704)","channel gating (V1/2 shift), inhibitor, two-electrode voltage clamp",Xenopus oocytes,,240 ± 20 µM
CCc1ccc(C(=O)NCCCC[C@H](NC(=O)[C@H](Cc2ccc(C(F)(F)P(=O)(O)O)cc2)NC(=O)[C@H](Cc2ccccc2)NC(=O)CO[C@H]2C[C@@H](C)CC[C@@H]2C(C)C)C(N)=O)cc1,"Tyrosine-protein phosphatase non-receptor type 2 (PTPN2, Homo sapiens, UniProt P17706)","enzyme activity, inhibitor",,"enzyme preincubated 30 min, together with: pNPP substrate",0.0087 ± 0.0014 µM
O=C(O)C(=O)C=C(O)c1cn(Cc2ccc(F)cc2)c2cc(N3CCCC3)ccc2c1=O,"Gag-Pol polyprotein, integrase (gag-pol, Human immunodeficiency virus 1, UniProt P12497)","enzyme activity, inhibitor",,,0.495 µM
CN1C(=O)[C@]23SS[C@@]1(C)C(=O)N2[C@H]1Nc2ccccc2[C@@]1([C@@]12c4ccccc4N[C@@H]1N1C(=O)[C@@]4(C)SS[C@]1(C(=O)N4C)[C@H]2O)[C@@H]3O,"Protein arginine N-methyltransferase 6 (PRMT6, Homo sapiens, UniProt Q96LA8)","methyltransferase activity, inhibitor",,together with: 1 µM [3H]SAM,> 10 µM
COc1ccc(NC(=O)N2CCCCN3[C@H](CN(C)C)[C@H](c4ccc(C#Cc5ccccc5)cc4)[C@@H]3C2)cc1,Phenylalanine--tRNA ligase alpha subunit,"aminoacylation activity, inhibitor",,,0.023 µM
CC[C@H](C)[C@H](NC(=O)[C@H](C)N)C(=O)N[C@@H](CCCNC(=N)N)C(=O)N[C@@H](CCC(N)=O)C(=O)N[C@H](C(=O)N[C@@H](Cc1c[nH]cn1)C(=O)N[C@@H](CC(N)=O)C(=O)N[C@H](C(=O)N[C@@H](Cc1ccccc1)C(=O)N[C@@H](Cc1ccccc1)C(=O)N[C@@H](CC(N)=O)C(=O)N[C@@H](Cc1ccccc1)C(=O)N[C@@H](Cc1ccccc1)C(=O)N[C@@H](CCCCN)C(=O)N[C@@H](CCCNC(=N)N)C(=O)N[C@@H](CCCNC(=N)N)C(=O)O)[C@@H](C)CC)[C@@H](C)O,"histidine kinase ComD (Streptococcus pneumoniae serotype 4, UniProt A0A0H2US84)","reporter gene, antagonist","Streptococcus pneumoniae, TIGR4 comX::lacZ","30 min, 37 °C, together with: CSP2 250 nM",> 10 µM
NS(=O)(=O)CCc1cccc(Nc2nccc(-c3c(-c4cccc(NC(=O)c5c(F)cccc5F)c4)nn4ccccc34)n2)c1,"ROP18 (Toxoplasma gondii, UniProt Q2PAY2)","enzyme activity, inhibitor",,,0.69 µM
CN1CCN(Cc2ccc(NC(=O)c3cncc(C#Cc4cnc(N)c5ncccc45)c3)cc2C(F)(F)F)CC1,"Breakpoint cluster region protein/Tyrosine-protein kinase ABL1 (Homo sapiens, UniProt P00519+P11274)",,,,0.0099 ± 0.0011 µM
S=C(N/N=C1\CCCc2c1[nH]c1ccc(C3CCCCC3)cc21)Nc1ccccc1,"Lysine--tRNA ligase (lysS, Pseudomonas aeruginosa, UniProt Q9HXU0)","aminoacylation, scintillation proximity",,,30 µM

# Excerpt of the above:
SMILES,target,test,test system,setting,IC50
O=C([O-])[C@H]([O-])[C@@H]([O-])C(=O)[O-].O=C([O-])[C@H]([O-])[C@@H]([O-])C(=O)[O-].[K+].[K+].[Sb+3].[Sb+3],"Thioredoxin glutathione reductase (Schistosoma mansoni, UniProt Q962Y6)","glutathione reductase activity, inhibitor",,"10 min preincubation with NADPH, together with: 100 µM GSSG",0.008 µM
O=C(O)c1ccccc1-c1c2ccc(=O)c([As]3SCCS3)c-2oc2c([As]3SCCS3)c(O)ccc12,"Tyrosine-protein phosphatase non-receptor type 11 (PTPN11, Homo sapiens, UniProt Q06124, V368C)","enzyme activity, inhibitor",crude Escherichia coli lysate,"120 min, 37 °C, together with: pNPP",1.3 µM
COc1c(C[C@@H](O)C(C)(C)O)c(=O)n(C)c2ccccc12,"Acetylcholinesterase (ACHE, Homo sapiens, UniProt P22303)","enzyme activity, inhibitor",,,> 500 µM
Nc1ccc2cc3ccccc3cc2c1,"Voltage-gated inwardly rectifying potassium channel KCNH2 (KCNH2, Homo sapiens, UniProt Q12809)","thallium influx, inhibitor, primary qHTS",hERG-transduced cells,two runs,6.5 ± 2.1 µM
O=c1c2ccccc2[se]n1-c1ccccc1,"Trypanothione synthetase (Trypanosoma brucei brucei, UniProt Q586P2)","enzyme activity, BIOMOL Green phosphate release",,1 h preincubation,5 µM and 5.3 µM
O=C(O)CNCP(=O)(O)O,"EPSPS, Arabidopsis thaliana, wild type",enzyme activity,plant extract,,16.1 ± 2.6 µM
